Measured values of several laboratories.
Every numbered part comes from another study and shows a few of its results, in no order. Changes are numbered by the printed parent chain.

Set 1 — technique: protein-binding microarray; form: double-stranded DNA, one strand shown; matrix: in vitro; concentration: 0.8 µM; setting: whole 60-bp probe, no competitor; direction: higher = stronger binding
Target: Centromere-binding protein 1, full length, N-terminal tag (CBF1, Saccharomyces cerevisiae, UniProt P17106, residues 1-351)
Sequence of UniProt P17106 (whole entry, looked up): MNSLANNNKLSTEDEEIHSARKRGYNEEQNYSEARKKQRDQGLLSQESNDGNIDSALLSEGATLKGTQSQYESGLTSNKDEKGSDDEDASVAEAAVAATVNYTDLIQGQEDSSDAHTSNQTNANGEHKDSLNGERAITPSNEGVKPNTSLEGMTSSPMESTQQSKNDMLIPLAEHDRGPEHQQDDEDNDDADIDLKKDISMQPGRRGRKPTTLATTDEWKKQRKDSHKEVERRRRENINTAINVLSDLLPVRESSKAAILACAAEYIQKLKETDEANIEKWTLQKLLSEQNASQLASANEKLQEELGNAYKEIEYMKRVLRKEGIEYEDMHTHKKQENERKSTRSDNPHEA
| Oligonucleotide | fluorescence intensity [a.u.] |
| --- | --- |
| TGTACGAAGCTATGTCATGTAATTATAGTAGTTAGGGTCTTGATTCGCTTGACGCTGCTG | 500 |
| CTAATCACACGCTTGCACGTTGGTTCATATCGTTTCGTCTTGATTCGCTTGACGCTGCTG | 587 |
| CTAGCAACACACGTAATCATGACTAATGGTTGCTTCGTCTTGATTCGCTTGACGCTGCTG | 547 |
| TGTACGAAGCTATGTGTGGTGGTTATAGTAGTTAGGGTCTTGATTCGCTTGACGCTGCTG | 545 |
| GAACGCCACGATGATCGCACGTGCCGGCATTTATAGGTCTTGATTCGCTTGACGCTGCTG | 10100 |
| CTATGTTCATGAGTACACATGATTCCAAGAAAGTTCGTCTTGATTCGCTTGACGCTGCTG | 1030 |
| CTACTCTATTTTGATCACGCATGCAATTGCACATTCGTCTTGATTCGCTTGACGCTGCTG | 1660 |
| CTAAAAAATCAAGAAAACGTGCCACGAGTGTGGTTCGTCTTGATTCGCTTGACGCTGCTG | 917 |
| GAACTTCGTTCGAAAAACATCAGAGCCGTACTGTAGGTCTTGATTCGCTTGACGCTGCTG | 527 |
| TGTACGAAGCTATCGCTCGTGGTTATAGTAGTTAGGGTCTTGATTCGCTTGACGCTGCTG | 545 |
| GAAATTTATTTTCATCACCAAAAAAATCTCACCTAGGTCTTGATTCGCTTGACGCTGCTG | 471 |
| TGTACGAAGCTATCTGATGTAATTATAGTAGTTAGGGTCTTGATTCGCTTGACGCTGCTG | 542 |
| GAAGCTTTTGTAGAACATGTGGCTGTTTCTGTATAGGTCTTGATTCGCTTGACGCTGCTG | 747 |
| CTAATTTTACAATTTCATGTGCACACACCAAGGTTCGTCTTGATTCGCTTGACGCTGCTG | 562 |
| CTAATTTAAAGAAATCCCGTCACGCCTGGAATGTTCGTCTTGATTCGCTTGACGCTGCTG | 765 |
| TGTACGAAGCTATATCACCTATTTATAGTAGTTAGGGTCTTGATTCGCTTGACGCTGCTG | 511 |
| CTATTTCATCTTAATCACGGATGTATACTGATATTCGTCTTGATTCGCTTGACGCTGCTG | 609 |
| CTAAATGATATCAAACGCGTGGGTATTTTCCCTTTCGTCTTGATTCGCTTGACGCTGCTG | 506 |
| CTAACCCTCATAAAGCACGTGGCCTCTTATCGATTCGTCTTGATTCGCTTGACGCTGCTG | 7690 |
| TGTACGAAGCTATCCCTCACCTTTATAGTAGTTAGGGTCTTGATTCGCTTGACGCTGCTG | 497 |
| CTAAGCCAGATCAGGTGCGTGGATTCATATAATTTCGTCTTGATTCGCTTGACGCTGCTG | 1410 |
| CCTAACTACTATAAACACATGACATAGCTTCGTACAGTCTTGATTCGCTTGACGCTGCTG | 1200 |
| GAACCCGTGGTGGCGCTGGTGACGAAGAGGATCTAGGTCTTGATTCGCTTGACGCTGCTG | 511 |

Set 2 — target: CCND2, cyclin fold, Cln2 fusion (human); technique: yeast growth competition, sequencing; matrix: yeast; setting: weak parent motif; reference: not given; direction: higher = stronger binding
Parent: RB1 docking peptide (human); PKPLKKLRFDIEG; partner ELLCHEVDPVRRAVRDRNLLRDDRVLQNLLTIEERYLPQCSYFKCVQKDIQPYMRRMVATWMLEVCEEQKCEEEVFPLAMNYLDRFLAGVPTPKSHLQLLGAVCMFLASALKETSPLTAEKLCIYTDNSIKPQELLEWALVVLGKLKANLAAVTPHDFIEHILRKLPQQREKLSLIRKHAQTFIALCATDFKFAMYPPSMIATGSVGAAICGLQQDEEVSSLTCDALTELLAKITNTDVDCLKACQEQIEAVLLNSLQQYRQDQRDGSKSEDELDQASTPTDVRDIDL
| Substitution | normalised enrichment score |
| --- | --- |
| K6A | 0.502 |
| D10L | -0.506 |
| K5M | -0.185 |
| L7N | -0.16 |
| D10W | -0.7 |
| K5E | 0.0483 |
| E12W | 0.183 |
| K6D | 0.386 |
| E12M | -0.0775 |
| D10N | 0.278 |
| L7K | 0.417 |
| L4C | 0.544 |
| L4Y | 0.57 |
| P3W | 0.364 |
| P3C | 0.927 |
| K5N | -0.0608 |
| K2E | 0.252 |
| K5Q | 0.3 |
| D10K | 0.285 |
| P3N | 0.155 |
| I11S | 0.16 |
| L7H | 0.204 |
| K2P | 0.3 |
| K2Q | -0.0541 |
| L4I | 0.683 |

Set 3 — technique: DHFR PCA, deep sequencing; matrix: yeast; with: (+)-ABA 1.4 µM; reference: wild-type fitted maximum; direction: higher = stronger binding
Target: ABI1, truncated, D143A, DHFR fusion (Arabidopsis thaliana)
Setting: methotrexate growth selection, single substitutions
Parent: PYL1, truncated, DHFR fusion (Arabidopsis thaliana); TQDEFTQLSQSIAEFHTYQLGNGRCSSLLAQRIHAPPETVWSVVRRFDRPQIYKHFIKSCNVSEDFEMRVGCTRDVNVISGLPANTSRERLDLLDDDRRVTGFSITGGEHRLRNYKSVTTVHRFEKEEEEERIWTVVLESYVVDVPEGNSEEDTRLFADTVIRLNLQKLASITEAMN
| Substitution | relative binding score [%] |
| --- | --- |
| P83E | -6.69 |
| A13L | 35.7 |
| N22R | 56 |
| F5C | 52 |
| V118K | 21.6 |
| H16D | 6.14 |
| D153I | -16.3 |
| K58A | 46.2 |
| M176R | 45.8 |
| I52W | 16.2 |
| L156M | 61.2 |
| L169R | 4.67 |
| N22F | 41.8 |
| V70Q | 7.87 |
| T73A | 13 |
| M176I | 32.4 |
| D95P | -3.15 |
| I172L | 40.4 |

Set 4 — technique: RNA Bind-n-Seq; form: RNA; matrix: in vitro; concentration: 100 nM; reference: input RNA pool; direction: higher = stronger binding
Target: RING finger protein unkempt homolog, zinc fingers 1-6, SBP tag (UNK, Homo sapiens, UniProt Q9C0B0, residues 30-357)
Sequence of UniProt Q9C0B0 (30-357, looked up): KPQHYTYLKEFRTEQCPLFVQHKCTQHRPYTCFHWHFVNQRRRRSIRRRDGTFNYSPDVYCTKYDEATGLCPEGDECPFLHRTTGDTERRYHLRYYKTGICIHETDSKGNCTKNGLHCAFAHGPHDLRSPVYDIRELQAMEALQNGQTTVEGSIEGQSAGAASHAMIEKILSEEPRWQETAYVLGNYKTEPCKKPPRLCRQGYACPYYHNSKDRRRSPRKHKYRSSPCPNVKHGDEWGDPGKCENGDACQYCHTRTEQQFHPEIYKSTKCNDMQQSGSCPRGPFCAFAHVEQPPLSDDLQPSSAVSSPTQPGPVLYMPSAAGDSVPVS
Setting: RNA with constant flanks, vertebrate orthologous sites, ends assumed
| Oligonucleotide | bound/input enrichment [ratio] |
| --- | --- |
| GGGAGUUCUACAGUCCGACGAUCCCAAGAAACAUAGGAUAUUUGUGCUAUUUAAAAGUGAGCUUUGCUUUUUCUGCAUUUAAAGAGAAUACUUUUAUAUCAGGGGUGCUUUAAAAGUGUGAAGGUGUGCUCUGAUAAUCCCAGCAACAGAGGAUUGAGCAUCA | 0.519 |
| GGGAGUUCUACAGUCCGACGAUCGGUUGAUGUUCUGAAGAACCACUUGGUAAAAGAAGGUCGAGUAGAUGAAGAAAUUGCGCUUAGAAUUAUCAACGAAGGUGCUGCCAUCCUUCGGAGAGAGAAAACCAUGAUAGAAGUAGACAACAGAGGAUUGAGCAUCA | 0.531 |
| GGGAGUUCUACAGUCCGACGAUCCAUCUCUAAUUUUAUAUGUCCAAAAUGGCUUUGAAUUUUUAAGCAAUGAUUAGUUUUAAUUUGCUCUCCCUCAUAAAAUACAUUUAUAAUUCACCACGGAUAUCUGUCUGAAUUACUUCACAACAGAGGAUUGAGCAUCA | 0.799 |
| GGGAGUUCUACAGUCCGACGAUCUAUAUUUAGGAUGAAGCUCUUGCACCAGGUGUCACGGGUCUGGAGAACAGAUGGCUUGACGAGUUGCAAUUAUAAAUUAUUGUCCGUGGAACACAAUCCUUUAUAUAUCAACAUCACAGUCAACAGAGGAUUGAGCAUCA | 0.437 |
| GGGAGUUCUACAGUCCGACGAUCUGACCAUUCAUACAAAAUGUGUUUUGAGCAAUGGGUGUGAAUGAAGCCAUCACUUGACUGGCAUUCACUUUUCAGAACUGCACAGCACGGAAGCACCCGUGAGCCCGAGGUCUGCGCUCUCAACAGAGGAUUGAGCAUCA | 0.0449 |
| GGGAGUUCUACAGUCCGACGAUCAUUAGGUCAUGACCCUUACAGGUUAGGUCAUGAUGCUUACAGGUUAGGACAGGACCCUUAUAGAUUAGGCCAUGAUCCCUACAGACUAACUCCUGAUCCCUAUAGGAUGUCACCUCGACCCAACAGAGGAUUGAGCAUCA | 0.788 |
| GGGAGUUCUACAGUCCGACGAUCAUCCGAUUGCUGGAUGAAGACUGUUCCAAGUUAUAACCAAACAAAUAGCUCCAUGGACUUUAGAAAUUAUAUGAUGAGAGAUGAGAAUUUGGAACCACUGCCCCAAAACUGGGAAAUGGCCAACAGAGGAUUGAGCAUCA | 0.8 |
| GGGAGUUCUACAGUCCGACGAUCUGCAUUAUUUGACCAGAGUUGAAGUGACAGAGUUUGAAGACAUCAAAUCAGGUUACAGAAUAGAUUUUUAUUUUGACGAAAAUCCGUACUUUGAAAAUAAAGUUCUUUCCAAAGAGUUUCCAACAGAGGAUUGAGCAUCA | 0.287 |

For quick reference, copied from above (set 4):
| Oligonucleotide | bound/input enrichment [ratio] |
| --- | --- |
| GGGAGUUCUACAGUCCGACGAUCCCAAGAAACAUAGGAUAUUUGUGCUAUUUAAAAGUGAGCUUUGCUUUUUCUGCAUUUAAAGAGAAUACUUUUAUAUCAGGGGUGCUUUAAAAGUGUGAAGGUGUGCUCUGAUAAUCCCAGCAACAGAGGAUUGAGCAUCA | 0.519 |
| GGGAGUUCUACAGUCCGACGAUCGGUUGAUGUUCUGAAGAACCACUUGGUAAAAGAAGGUCGAGUAGAUGAAGAAAUUGCGCUUAGAAUUAUCAACGAAGGUGCUGCCAUCCUUCGGAGAGAGAAAACCAUGAUAGAAGUAGACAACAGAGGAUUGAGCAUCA | 0.531 |
| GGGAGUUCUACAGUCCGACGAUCCAUCUCUAAUUUUAUAUGUCCAAAAUGGCUUUGAAUUUUUAAGCAAUGAUUAGUUUUAAUUUGCUCUCCCUCAUAAAAUACAUUUAUAAUUCACCACGGAUAUCUGUCUGAAUUACUUCACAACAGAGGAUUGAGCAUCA | 0.799 |
| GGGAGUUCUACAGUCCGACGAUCUAUAUUUAGGAUGAAGCUCUUGCACCAGGUGUCACGGGUCUGGAGAACAGAUGGCUUGACGAGUUGCAAUUAUAAAUUAUUGUCCGUGGAACACAAUCCUUUAUAUAUCAACAUCACAGUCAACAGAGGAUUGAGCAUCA | 0.437 |
